Published values from different studies.
Lines come from different studies, so protocols differ. “And” joins repeats or separate records; there may be more than shown. ± marks the error that the study gave. Converted amounts (≈) assume the structure as drawn.
Chain of UniProt Q9Y5S2 (whole entry, looked up): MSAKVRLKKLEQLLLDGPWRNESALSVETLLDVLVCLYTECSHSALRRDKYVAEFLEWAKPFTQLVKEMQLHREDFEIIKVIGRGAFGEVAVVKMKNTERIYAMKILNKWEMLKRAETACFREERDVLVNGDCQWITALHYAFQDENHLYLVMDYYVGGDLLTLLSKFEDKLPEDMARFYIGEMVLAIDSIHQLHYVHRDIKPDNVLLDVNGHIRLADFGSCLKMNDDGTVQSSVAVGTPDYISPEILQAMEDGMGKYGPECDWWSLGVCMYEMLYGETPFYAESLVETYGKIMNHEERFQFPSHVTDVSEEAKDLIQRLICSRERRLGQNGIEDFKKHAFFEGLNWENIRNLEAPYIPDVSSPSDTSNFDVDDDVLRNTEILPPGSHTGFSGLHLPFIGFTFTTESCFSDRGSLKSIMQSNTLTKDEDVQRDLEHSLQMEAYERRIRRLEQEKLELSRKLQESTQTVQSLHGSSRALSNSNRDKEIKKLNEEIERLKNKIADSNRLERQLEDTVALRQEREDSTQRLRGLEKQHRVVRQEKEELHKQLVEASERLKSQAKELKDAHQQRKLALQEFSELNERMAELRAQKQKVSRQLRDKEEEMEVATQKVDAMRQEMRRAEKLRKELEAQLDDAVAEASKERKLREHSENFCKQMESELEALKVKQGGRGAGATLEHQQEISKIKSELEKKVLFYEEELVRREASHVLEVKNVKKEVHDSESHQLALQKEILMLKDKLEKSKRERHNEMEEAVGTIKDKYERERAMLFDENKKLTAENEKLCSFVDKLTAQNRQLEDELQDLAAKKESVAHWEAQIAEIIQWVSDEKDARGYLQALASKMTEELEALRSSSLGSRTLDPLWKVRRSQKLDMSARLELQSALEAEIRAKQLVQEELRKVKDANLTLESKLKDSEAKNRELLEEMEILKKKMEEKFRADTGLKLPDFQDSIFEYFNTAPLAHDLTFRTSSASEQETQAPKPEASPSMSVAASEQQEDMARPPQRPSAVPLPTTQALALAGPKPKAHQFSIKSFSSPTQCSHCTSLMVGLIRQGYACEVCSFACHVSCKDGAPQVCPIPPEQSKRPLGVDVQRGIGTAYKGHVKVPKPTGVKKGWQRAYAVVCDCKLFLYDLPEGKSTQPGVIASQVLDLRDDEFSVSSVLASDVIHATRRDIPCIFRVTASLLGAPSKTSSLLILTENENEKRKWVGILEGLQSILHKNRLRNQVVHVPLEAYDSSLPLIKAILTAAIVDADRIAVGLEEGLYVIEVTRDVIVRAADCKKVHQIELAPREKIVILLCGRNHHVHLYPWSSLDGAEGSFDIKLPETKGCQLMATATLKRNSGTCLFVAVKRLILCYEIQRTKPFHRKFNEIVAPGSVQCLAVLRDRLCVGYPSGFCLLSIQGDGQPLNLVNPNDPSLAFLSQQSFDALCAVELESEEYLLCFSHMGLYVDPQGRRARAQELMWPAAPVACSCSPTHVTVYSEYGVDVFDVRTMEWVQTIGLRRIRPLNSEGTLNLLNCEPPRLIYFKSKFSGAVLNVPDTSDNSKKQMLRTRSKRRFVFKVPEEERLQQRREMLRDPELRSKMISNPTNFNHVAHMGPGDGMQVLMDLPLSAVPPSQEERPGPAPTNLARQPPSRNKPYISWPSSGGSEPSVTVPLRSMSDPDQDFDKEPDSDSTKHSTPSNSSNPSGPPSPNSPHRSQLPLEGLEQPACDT
Chain of UniProt Q13310 (whole entry, looked up): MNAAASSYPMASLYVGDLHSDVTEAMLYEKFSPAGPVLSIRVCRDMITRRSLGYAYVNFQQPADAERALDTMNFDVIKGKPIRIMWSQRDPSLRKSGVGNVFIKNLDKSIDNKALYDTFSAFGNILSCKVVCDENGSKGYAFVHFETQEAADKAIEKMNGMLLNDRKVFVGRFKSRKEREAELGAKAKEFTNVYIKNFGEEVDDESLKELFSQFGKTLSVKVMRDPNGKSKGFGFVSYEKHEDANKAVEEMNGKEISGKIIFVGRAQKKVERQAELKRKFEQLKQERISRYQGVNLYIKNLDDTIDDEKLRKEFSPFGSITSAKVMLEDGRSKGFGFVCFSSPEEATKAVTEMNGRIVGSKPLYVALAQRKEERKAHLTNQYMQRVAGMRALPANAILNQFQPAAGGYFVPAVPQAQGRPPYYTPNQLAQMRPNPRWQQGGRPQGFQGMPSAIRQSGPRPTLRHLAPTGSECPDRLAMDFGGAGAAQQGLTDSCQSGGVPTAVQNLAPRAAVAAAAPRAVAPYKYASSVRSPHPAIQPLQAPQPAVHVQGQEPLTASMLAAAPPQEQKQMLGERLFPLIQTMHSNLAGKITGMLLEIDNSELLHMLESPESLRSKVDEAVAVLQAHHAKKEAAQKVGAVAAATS
Chain of UniProt Q96IU4 (whole entry, looked up): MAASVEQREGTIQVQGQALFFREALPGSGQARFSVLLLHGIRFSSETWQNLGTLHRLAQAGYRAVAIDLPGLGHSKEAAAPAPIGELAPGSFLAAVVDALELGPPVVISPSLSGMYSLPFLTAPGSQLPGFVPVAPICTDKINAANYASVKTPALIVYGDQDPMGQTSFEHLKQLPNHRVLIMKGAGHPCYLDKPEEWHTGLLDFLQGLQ

C=C(C)c1ccc(OCCc2cccc(F)c2)c(C(N)=O)c1 — IC90 (Mycobacterium tuberculosis; growth; H37Rv-LP; 120 h): 0.48 ± 0.27 µM
OC(Cn1cncn1)(Cn1cncn1)c1ccc(F)cc1F — OD600 (Saccharomyces cerevisiae; cell growth; Pdr5 deleted, empty vector; 2^-1.322 µg/mL): 0.101 and 0.094 and 0.087
CC(=O)N[C@H]1[C@H]([C@H](O)[C@H](O)CO)OC(C(=O)O)=C[C@@H]1O — EC50 (Influenza A virus; viral replication; A/Paris/908/97 (H3N2); 72 h): 20 µM
O=C(c1ccc(Cl)cc1)N1CCN2C(=O)N(OC(=O)N3CCOc4ccccc43)C(=O)C2C1 (stereo not drawn) — probe labelling ratio (Putative protein-lysine deacylase ABHD14B (Homo sapiens, UniProt Q96IU4); MS-based ABPP; SW-620 conditioned medium; 10 µM, 1 h, 37 °C, mean protein ratio; reference: compound over DMSO): 1.32
COCCNC(=O)c1cc(-c2ccoc2)ccc1OCCc1cccc(F)c1 — selectivity index (Mycobacterium tuberculosis; H37Rv-LP; reference: HepG2 CC50 over Mtb IC90): > 2
COc1ccc(-c2cc(C(F)(F)F)c3c(N)c(C(=O)N4CC(C)OC(C)C4)sc3n2)cc1 (stereo not drawn) — selectivity index (Mycobacterium tuberculosis; H37Rv wild type; reference: HepG2 IC50 over M. tuberculosis IC90): < 1
CN(C)[C@@H]1C(O)=C(C(N)=O)C(=O)[C@@]2(O)C(O)=C3C(=O)c4c(O)cccc4[C@@](C)(O)[C@H]3C[C@@H]12 — MIC (Burkholderia cepacia; 6349): 32 µg/mL
Cc1ccc2[nH]c(=S)n(Cc3cccnc3)c(=O)c2c1 — MIC90 (Mycobacterium tuberculosis; PptT conditional knockdown): 2.5 µM (≈ 0.708 µg/mL)
CNC(=O)c1cc(C)cnc1OCCc1cccc(F)c1 — selectivity index (Mycobacterium tuberculosis; H37Rv-LP; reference: HepG2 CC50 over Mtb IC90): 4
COc1c(N2C[C@@H]3CCCN[C@@H]3C2)c(F)cc2c(=O)c(C(=O)O)cn(C3CC3)c12 — MIC (Mycobacterium chelonae; ATCC 35752): 0.02 µM
NC(=O)c1ncn([C@@H]2O[C@H](CO)[C@@H](O)[C@H]2O)n1 — EC50 (human coronavirus 229E; viral replication; Huh7.5): 18 ± 2 µM
CCOC(=O)c1c(C)nc(NCCCNc2ccnc3cc(Cl)ccc23)nc1-c1ccccc1 — EC50 (parainfluenza virus 3; viral replication; Vero): > 20 µM
NC(=O)c1cc(C2CC2)ccc1OCCc1cccc(F)c1 — IC90 (Mycobacterium tuberculosis; growth; H37Rv-LP; 120 h): 1.2 ± 0.41 µM
CCOC(=O)c1c(C)nc(NCCCCNc2ccnc3cc(Cl)ccc23)nc1-c1ccccc1 — EC50 (parainfluenza virus 3; viral replication; Vero): > 100 µM
COc1ccc2cc1Oc1ccc(cc1)C[C@H]1c3cc(c(OC)cc3CCN1C)Oc1c(OC)c(OC)cc3c1[C@@H](C2)N(C)CC3 — IC50 (Influenza A virus; viral replication; MDCK, A/HanFang/359/95 (H3N2); 48 h): 5.02 ± 0.53 µM
C[C@H]1CN(c2n[nH]c3nc(N[C@H]4CC[C@H](NS(=O)(=O)CCC(F)(F)F)CC4)ncc23)CCO1 — remaining binding (Polyadenylate-binding protein 4 (Homo sapiens, UniProt Q13310); Kinobeads competition, measured: PABPC4; 0.8 µM, unit not given; reference: vehicle): 1.44
CN(C)Cc1cc2[nH]c(=S)n(Cc3cccnc3)c(=O)c2cc1Cl — MIC90 (Mycobacterium tuberculosis; PptT conditional knockdown): 1.54 µM (≈ 0.556 µg/mL)
COc1ccc2cc1Oc1ccc(cc1)C[C@H]1c3c(cc4c(c3Oc3cc5c(cc3OC)CCN(C)[C@@H]5C2)OCO4)CCN1C — IC50 (Influenza A virus; viral replication; MDCK, A/HanFang/359/95 (H3N2); 48 h): 3.25 ± 0.07 µM
NC(=O)c1ncn([C@@H]2O[C@H](CO)[C@@H](O)[C@H]2O)n1 — reporter activity (lymphocytic choriomeningitis virus; reporter gene; BHK-21; 100 µM, minigenome, Gaussia luciferase; reference: DMSO): 23.6%
COc1c(CCC[P+](c2ccccc2)(c2ccccc2)c2ccccc2)cc2c(c1OC)OCO2.[I-] — TGI (SF-268; SRB): -4.88 log M
N#Cc1ccc(Cn2c(=S)[nH]c3ccc(Cl)cc3c2=O)cn1 — MIC90 (Mycobacterium tuberculosis; PptT conditional knockdown): 1.87 µM (≈ 0.615 µg/mL)
CC[C@H](C)[C@@H]1NC(=O)[C@@H]2CCCN2C(=O)[C@H](CC(C)C)NC(=O)[C@H](CC(C)C)NC(=O)CNC(=O)[C@@H](NC(=O)[C@@H](NC(=O)[C@H](CC(=O)O)NC(=O)CNC(=O)[C@@H](NC(=O)[C@H](C)NC(=O)CNC(=O)[C@H](CCCCN)NC(=O)[C@H](CC(C)C)NC(=O)[C@H](CC(C)C)NC(=O)[C@H](CCCCN)NC(=O)CNC(=O)[C@@H](NC(=O)[C@@H](N)CC(C)C)C(C)C)C(C)C)C(C)C)CSSC[C@@H](C(=O)O)NC1=O — log2 fold change (RNA-seq, measured: Per1; mouse, traumatic brain injury model, frontal cortex and hippocampus; dose not given; reference: TBI alone): -0.823
CC(C)C(=O)OCc1cc2[nH]c(=S)n(Cc3cncc(C#N)c3)c(=O)c2cc1Cl — MIC90 (Mycobacterium tuberculosis; PptT conditional knockdown): 0.855 µM (≈ 0.367 µg/mL)
COc1cc2c(Oc3ccc4[nH]c(C)cc4c3F)ccnc2cc1OCC1(N)CC1 — sinus arrhythmia incidence (paediatric refractory sarcoma patients; 10 mg): 0%
COc1ccc(-c2cc(C(F)(F)F)c3c(N)c(C(=O)N4CC(F)(F)C4)sc3n2)cc1 — IC90 (Mycobacterium tuberculosis; H37Rv wild type; 120 h): inactive
O=C(O)c1cn(C2CC2)c2cc(N3CCNCC3)c(F)cc2c1=O — MIC (Burkholderia cepacia; 6349): 1 µg/mL
O=C(O)C1=CC(=C(c2ccc(O)c(C(=O)O)c2)c2ccc(O)c(C(=O)O)c2)C=CC1=O — reporter activity (lymphocytic choriomeningitis virus; reporter gene; BHK-21; 100 µM, minigenome, Gaussia luciferase; reference: DMSO): 168%
Cc1ccc(OCCc2cc(F)cc(F)c2)c(C(=O)N(C)C)c1 — IC90 (Mycobacterium tuberculosis; growth; H37Rv-LP; 120 h): 49 ± 3 µM
COc1ccc(-c2cc(C(F)(F)F)c3c(N)c(C(=O)NCCc4ccccc4)sc3n2)cc1 — IC50 (Mycobacterium tuberculosis; growth inhibition; H37Rv LepB under-expressing): > 100 µM
Cc1ccc(OCCc2cc(F)cc(F)c2)c(C(=O)NCC2CC2)c1 — IC90 (Mycobacterium tuberculosis; growth; H37Rv-LP; 120 h): 6.1 ± 1.6 µM
COc1ccc(-c2cc(C(F)(F)F)c3c(N)c(C(=O)Nc4ccc(C)cc4C)sc3n2)cc1 — IC90 (Mycobacterium tuberculosis; H37Rv wild type; 120 h): inactive
CN1CC[C@@H](c2c(O)cc(O)c3c(=O)cc(-c4ccc(C(F)(F)F)cc4Cl)oc23)[C@@H]1CO — patients with adverse event (measured: Anemia; relapsed B-cell malignancies; oral, 100 mg, grade 3-4, intermittent dosing): 0%
COc1cc(Nc2ncc(F)c(Nc3ccc4c(n3)NC(=O)C(C)(C)O4)n2)cc(OC)c1OC — IC50 (CRF receptor): > 10 µM
COc1ccc2[nH]c(=S)n(Cc3cccnc3)c(=O)c2c1 — MIC90 (Mycobacterium tuberculosis; PptT conditional knockdown): 5.92 µM (≈ 1.77 µg/mL)
COc1ccc(-c2cc(C(F)(F)F)c3c(N)c(C(=O)Nc4ccc(C)c(C)c4)sc3n2)cc1 — IC50 (Mycobacterium tuberculosis; growth inhibition; H37Rv LepB under-expressing): > 100 µM
Cc1nc(-c2ccc(OCCc3cccc(F)c3)c(C(N)=O)c2)cs1 — selectivity index (Mycobacterium tuberculosis; H37Rv-LP; reference: HepG2 CC50 over Mtb IC90): 11
CC[C@H](C)[C@H](NC(=O)[C@H](Cc1ccccc1)NC(=O)[C@H](CCC(=O)O)NC(=O)[C@H](CCCNC(=N)N)NC(=O)[C@H](C)NC(=O)[C@H](C)NC(=O)[C@H](CCC(N)=O)NC(=O)[C@H](CCC(=O)O)NC(=O)[C@H](CCC(=O)O)NC(=O)[C@H](CC(C)C)NC(=O)[C@H](Cc1ccc(O)cc1)NC(=O)[C@H](CO)NC(=O)[C@H](CO)NC(=O)[C@@H](NC(=O)[C@H](CC(=O)O)NC(=O)[C@H](CO)NC(=O)[C@@H](NC(=O)[C@H](Cc1ccccc1)NC(=O)[C@@H](NC(=O)CNC(=O)[C@H](CCC(=O)O)NC(=O)[C@H](C)NC(=O)CCc1c[nH]cn1)[C@@H](C)O)[C@@H](C)O)C(C)C)C(=O)N[C@@H](C)C(=O)N[C@@H](Cc1c[nH]c2ccccc12)C(=O)N[C@@H](CC(C)C)C(=O)N[C@H](C(=O)N[C@@H](CCCNC(=N)N)C(=O)NCC(=O)N[C@@H](CCCNC(=N)N)C(=O)N[C@@H](CCCCNC(=O)COCCOCCNC(=O)COCCOCCNC(=O)CC[C@H](NC(=O)CCCCCCCCCCCCCCCCC(=O)O)C(=O)O)C(=O)NCC(=O)NCC(=O)N[C@@H](CO)C(=O)N[C@@H](CCCCNc1c(NCCCCCN(O)C(=O)CCC(=O)NCCCCCN(O)C(=O)CCC(=O)NCCCCCN(O)C(C)=O)c(=O)c1=O)C(=O)O)C(C)C [zirconium-89 labelled] — tissue uptake (ex vivo gamma counting; rat, duodenum content; subcutaneous, 3 nmol/kg, 24 h, together with: [89Zr]-labelled peptide): 0.08 %ID/g
COc1ccc(-c2cc(C(F)(F)F)c3c(N)c(C(=O)Nc4c(C)cccc4C)sc3n2)cc1 — IC90 (Mycobacterium tuberculosis; H37Rv wild type; 120 h): inactive
COC(=O)OCc1cc2[nH]c(=S)n(Cc3cccnc3)c(=O)c2cc1Cl — MIC90 (Mycobacterium tuberculosis; PptT conditional knockdown): 0.33 µM (≈ 0.129 µg/mL)
NC(=O)c1cc(-c2cscn2)ccc1OCCc1cccc(F)c1 — selectivity index (Mycobacterium tuberculosis; H37Rv-LP; reference: HepG2 CC50 over Mtb IC90): 0.08
C[C@@H](O)[C@@H](CO)NC(=O)[C@@H](CCCNC(=N)N)NC(=O)[C@@H]1CCCN1C(=O)[C@@H]1CSSC[C@H](NC(=O)[C@H](Cc2ccccc2)NC(=O)CN2CCN(CC(=O)O)CCN(CC(=O)O)CCN(CC(=O)O)CC2)C(=O)N[C@@H](Cc2ccc(O)cc2)C(=O)N[C@@H](Cc2ccccc2)C(=O)N[C@@H](CCC(N)=O)C(=O)N[C@@H](CC(N)=O)C(=O)N1 [gallium-68 labelled] — tissue uptake (Wistar rat, healthy, Parotid gland; intravenous, 8 MBq, 60 min): 0.18 %ID/g
COc1ccc(-c2cc(C(F)(F)F)c3c(N)c(C(=O)N4CCC4)sc3n2)cc1 — IC90 (Mycobacterium tuberculosis; H37Rv wild type; 120 h): inactive
COc1ccc(N2C(=O)N(c3c(C)cccc3Cl)Cc3cnc(Nc4ccc(C5CCN(C)CC5)cc4OC)nc32)nc1 — inhibition (Serine/threonine-protein kinase MRCK beta (CDC42BPB, Homo sapiens, UniProt Q9Y5S2); kinase activity, inhibitor; 0.5 µM, kinase MRCK-BETA): 2.56%
COc1ccc(-c2cc(C(F)(F)F)c3c(N)c(C(=O)Nc4cc(C)ccc4C)sc3n2)cc1 — selectivity index (Mycobacterium tuberculosis; H37Rv wild type; reference: HepG2 IC50 over M. tuberculosis IC90): < 1
Cn1c(=O)ccc2ccc(F)c(CCNC[C@H]3CN(c4cnc5c(n4)NC(=O)CO5)C(=O)O3)c21 — MIC50 (Burkholderia cepacia): 0.06 µg/mL (≈ 0.128 µM)
CO[C@H]1C[C@@H]2CC[C@@H](C)[C@@](O)(O2)C(=O)C(=O)N2CCCC[C@H]2C(=O)O[C@H]([C@H](C)C[C@@H]2CC[C@@H](OC(=O)NCCOCCOCCOCCOCCOCCOCCOCCOCCC(=O)N3CCc4cc(Cn5nc(-c6ccc7oc(N)nc7c6)c6c(N)ncnc65)ccc4C3)[C@H](OC)C2)C[C@@H](O)[C@H](C)/C=C(\C)[C@@H](O)[C@@H](OC)C(=O)[C@H](C)C[C@H](C)/C=C/C=C/C=C/1C — incidence of Nausea TRAE (patients with advanced solid tumours; intravenous, dose not given, any grade): 43.9%
Cc1cc2c(=O)n(Cc3cccnc3)c(=S)[nH]c2cn1 — MIC90 (Mycobacterium tuberculosis; PptT conditional knockdown): 0.21 µM (≈ 0.0597 µg/mL)
COc1ccc(C(=O)Nc2ccccc2C(=O)N[C@H](C(=O)NC2CCCCC2)C(C)C)cc1 — EC50 (human coronavirus 229E; viral replication, plaque reduction; MRC-5; 6 days): > 50 µM
COc1cc(CCC[P+](c2ccccc2)(c2ccccc2)c2ccccc2)c(OC)c2c1OCO2.[I-] — TGI (SF-539; SRB): -4.9 log M
O=C1c2cc(Cl)ccc2NS(=O)(=O)N1Cc1cccnc1 — MIC90 (Mycobacterium tuberculosis; PptT conditional knockdown): > 100 µM
OC(Cn1cncn1)(Cn1cncn1)c1ccc(F)cc1F — MIC (Trichophyton rubrum; ATCC 28189; 50% inhibition): 2 µg/mL

Repeated from above:
CCOC(=O)c1c(C)nc(NCCCCNc2ccnc3cc(Cl)ccc23)nc1-c1ccccc1 — EC50 (parainfluenza virus 3; viral replication; Vero): > 100 µM
COc1ccc(-c2cc(C(F)(F)F)c3c(N)c(C(=O)Nc4c(C)cccc4C)sc3n2)cc1 — IC90 (Mycobacterium tuberculosis; H37Rv wild type; 120 h): inactive
Cc1ccc(OCCc2cc(F)cc(F)c2)c(C(=O)NCC2CC2)c1 — IC90 (Mycobacterium tuberculosis; growth; H37Rv-LP; 120 h): 6.1 ± 1.6 µM
